{"data": "Measurements pooled from the literature", "USP5": "Ubiquitin carboxyl-terminal hydrolase 5 (USP5, Homo sapiens, UniProt P45974)", "CASP9": "Caspase-9 (CASP9, Homo sapiens, UniProt P55211)", "CASP4": "Caspase-4 (CASP4, Homo sapiens, UniProt P49662)", "note": "Values joined by “and” are separate records of one study, mostly repeats; a detail may differ. ± marks the error that the study gave.", "UniProt P49662, sequence (whole entry, looked up)": "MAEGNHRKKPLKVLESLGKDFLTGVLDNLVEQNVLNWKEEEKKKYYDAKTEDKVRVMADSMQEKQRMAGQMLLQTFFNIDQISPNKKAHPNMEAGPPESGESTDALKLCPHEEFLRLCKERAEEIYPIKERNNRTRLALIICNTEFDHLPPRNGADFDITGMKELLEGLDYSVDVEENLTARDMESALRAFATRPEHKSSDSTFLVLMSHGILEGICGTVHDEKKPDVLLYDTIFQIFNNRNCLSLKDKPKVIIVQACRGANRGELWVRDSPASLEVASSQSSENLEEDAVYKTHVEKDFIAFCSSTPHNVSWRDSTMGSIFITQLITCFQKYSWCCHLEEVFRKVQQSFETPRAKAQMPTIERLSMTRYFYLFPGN", "UniProt P55211, sequence (whole entry, looked up)": "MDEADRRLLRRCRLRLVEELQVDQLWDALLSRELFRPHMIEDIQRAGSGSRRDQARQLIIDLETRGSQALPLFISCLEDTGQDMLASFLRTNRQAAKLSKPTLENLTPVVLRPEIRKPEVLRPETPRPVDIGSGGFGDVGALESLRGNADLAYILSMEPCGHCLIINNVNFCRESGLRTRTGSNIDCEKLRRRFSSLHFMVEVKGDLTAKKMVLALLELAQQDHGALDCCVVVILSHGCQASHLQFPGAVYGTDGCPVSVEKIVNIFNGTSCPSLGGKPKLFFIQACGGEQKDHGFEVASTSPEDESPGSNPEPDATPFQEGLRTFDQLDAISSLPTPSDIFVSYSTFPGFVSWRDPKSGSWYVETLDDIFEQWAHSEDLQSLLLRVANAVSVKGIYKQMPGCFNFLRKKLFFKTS", "UniProt P68363, sequence (whole entry, looked up)": "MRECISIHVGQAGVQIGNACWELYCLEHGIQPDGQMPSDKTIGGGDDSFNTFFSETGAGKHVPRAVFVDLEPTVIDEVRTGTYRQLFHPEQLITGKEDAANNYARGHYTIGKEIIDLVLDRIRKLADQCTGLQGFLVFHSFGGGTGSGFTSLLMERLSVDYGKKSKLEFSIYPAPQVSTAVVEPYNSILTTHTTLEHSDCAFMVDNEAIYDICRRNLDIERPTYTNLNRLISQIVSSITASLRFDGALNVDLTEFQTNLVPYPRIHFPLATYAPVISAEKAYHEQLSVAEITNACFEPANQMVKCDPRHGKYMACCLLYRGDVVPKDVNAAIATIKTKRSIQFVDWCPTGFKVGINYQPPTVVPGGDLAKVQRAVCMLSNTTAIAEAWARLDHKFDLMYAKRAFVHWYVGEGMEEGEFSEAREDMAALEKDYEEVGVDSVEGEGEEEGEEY", "UniProt P45983, sequence (whole entry, looked up)": "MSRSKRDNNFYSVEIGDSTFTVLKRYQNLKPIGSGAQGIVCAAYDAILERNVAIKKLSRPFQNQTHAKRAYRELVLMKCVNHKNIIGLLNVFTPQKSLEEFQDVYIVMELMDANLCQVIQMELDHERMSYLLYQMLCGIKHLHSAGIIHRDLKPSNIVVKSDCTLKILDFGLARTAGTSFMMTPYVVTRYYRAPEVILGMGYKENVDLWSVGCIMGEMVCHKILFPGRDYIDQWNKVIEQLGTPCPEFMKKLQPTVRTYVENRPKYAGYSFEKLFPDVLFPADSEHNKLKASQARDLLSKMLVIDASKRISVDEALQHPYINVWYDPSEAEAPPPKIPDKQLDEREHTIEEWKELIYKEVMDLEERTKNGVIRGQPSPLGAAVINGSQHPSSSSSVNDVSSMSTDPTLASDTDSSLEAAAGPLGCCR", "UniProt P45974, sequence (whole entry, looked up)": "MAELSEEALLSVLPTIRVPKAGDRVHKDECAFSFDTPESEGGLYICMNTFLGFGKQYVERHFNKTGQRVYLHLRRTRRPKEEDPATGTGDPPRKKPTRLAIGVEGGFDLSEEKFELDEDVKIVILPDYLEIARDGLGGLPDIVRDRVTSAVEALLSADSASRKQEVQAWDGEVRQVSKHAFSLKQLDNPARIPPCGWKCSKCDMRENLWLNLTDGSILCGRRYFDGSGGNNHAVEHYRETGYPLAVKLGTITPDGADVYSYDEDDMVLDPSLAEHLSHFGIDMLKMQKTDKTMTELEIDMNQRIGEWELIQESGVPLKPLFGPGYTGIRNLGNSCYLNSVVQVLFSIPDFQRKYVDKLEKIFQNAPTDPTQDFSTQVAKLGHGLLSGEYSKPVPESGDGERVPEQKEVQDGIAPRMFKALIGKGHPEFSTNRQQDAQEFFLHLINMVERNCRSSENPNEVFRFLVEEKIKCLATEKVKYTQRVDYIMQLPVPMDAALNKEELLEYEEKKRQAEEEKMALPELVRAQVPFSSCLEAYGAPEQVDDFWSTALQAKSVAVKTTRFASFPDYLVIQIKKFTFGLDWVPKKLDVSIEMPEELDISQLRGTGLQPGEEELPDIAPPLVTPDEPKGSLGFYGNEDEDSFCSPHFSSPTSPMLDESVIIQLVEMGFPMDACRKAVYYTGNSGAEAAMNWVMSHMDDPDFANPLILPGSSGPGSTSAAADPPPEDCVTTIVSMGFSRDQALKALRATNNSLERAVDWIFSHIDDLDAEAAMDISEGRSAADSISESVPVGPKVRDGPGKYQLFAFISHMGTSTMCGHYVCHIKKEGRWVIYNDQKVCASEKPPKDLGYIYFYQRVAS", "UniProt P18669, sequence (whole entry, looked up)": "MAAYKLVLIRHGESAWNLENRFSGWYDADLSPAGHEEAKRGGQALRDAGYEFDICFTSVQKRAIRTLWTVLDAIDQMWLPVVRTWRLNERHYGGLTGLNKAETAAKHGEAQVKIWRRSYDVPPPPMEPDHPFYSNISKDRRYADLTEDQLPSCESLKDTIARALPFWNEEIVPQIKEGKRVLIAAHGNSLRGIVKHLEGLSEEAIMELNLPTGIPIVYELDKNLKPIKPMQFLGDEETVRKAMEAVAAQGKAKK", "UniProt Q06180, sequence (whole entry, looked up)": "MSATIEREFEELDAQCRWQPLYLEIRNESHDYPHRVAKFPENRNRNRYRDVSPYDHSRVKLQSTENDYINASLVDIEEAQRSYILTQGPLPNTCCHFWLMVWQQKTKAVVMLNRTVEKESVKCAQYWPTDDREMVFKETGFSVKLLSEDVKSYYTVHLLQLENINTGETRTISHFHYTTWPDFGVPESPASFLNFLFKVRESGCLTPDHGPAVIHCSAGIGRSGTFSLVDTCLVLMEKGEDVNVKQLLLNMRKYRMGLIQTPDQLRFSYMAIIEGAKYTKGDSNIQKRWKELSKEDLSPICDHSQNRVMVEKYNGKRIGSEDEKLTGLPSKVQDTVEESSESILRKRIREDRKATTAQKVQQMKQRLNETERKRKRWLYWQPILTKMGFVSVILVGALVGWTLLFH", "UniProt P62258, sequence (whole entry, looked up)": "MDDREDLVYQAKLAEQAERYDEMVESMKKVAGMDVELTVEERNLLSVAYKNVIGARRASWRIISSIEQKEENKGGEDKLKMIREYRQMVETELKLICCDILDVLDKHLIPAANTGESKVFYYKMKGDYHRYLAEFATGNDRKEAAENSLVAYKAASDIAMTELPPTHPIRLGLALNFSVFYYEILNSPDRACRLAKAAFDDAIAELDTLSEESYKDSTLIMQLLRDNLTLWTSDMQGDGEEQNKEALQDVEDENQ", "UniProt P0ABQ4, sequence (whole entry, looked up)": "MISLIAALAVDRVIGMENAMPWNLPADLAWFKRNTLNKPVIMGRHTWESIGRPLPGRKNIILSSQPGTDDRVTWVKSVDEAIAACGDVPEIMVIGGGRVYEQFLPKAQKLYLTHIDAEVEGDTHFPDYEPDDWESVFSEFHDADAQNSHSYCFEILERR", "UniProt P43220, sequence (whole entry, looked up)": "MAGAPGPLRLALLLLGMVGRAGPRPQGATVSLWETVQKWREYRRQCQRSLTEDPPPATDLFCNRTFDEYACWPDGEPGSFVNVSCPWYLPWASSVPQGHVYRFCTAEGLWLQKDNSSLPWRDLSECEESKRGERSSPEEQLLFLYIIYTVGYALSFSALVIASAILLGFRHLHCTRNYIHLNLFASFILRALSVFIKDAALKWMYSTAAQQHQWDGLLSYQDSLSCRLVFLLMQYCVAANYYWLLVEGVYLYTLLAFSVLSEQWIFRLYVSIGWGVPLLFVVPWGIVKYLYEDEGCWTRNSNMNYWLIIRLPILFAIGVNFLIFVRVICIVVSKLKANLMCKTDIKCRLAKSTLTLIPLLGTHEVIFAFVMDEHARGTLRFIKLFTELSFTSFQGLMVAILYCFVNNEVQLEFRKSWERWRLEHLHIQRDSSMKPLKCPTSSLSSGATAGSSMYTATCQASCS", "UniProt Q8TDS7, sequence (whole entry, looked up)": "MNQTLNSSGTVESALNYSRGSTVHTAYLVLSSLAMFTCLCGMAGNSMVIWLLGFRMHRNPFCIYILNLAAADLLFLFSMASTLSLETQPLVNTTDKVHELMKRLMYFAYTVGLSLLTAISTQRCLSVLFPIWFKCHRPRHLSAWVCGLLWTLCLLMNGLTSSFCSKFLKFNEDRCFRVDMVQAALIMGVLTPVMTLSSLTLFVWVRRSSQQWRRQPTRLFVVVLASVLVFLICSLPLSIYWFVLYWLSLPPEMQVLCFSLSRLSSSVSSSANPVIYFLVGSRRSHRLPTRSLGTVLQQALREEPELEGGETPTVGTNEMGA", "UniProt P01317, sequence (whole entry, looked up)": "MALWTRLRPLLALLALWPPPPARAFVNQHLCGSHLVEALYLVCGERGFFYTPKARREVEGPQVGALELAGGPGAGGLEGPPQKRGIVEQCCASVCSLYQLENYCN", "UniProt Q3UFF7, sequence (whole entry, looked up)": "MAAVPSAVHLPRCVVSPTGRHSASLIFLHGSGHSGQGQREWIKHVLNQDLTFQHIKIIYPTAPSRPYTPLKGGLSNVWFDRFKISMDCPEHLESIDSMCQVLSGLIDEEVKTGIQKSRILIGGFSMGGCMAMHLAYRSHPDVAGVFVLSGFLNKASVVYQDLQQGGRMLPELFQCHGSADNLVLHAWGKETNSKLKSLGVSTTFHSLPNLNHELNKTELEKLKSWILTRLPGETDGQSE"}
{"SMILES": "COc1ccc(C2(C(=O)N3CCC(Nc4nc5ccccc5c(=O)[nH]4)CC3)CC2)cc1", "target": "MRGPRD (Homo sapiens, UniProt Q8TDS7)", "assay": "miniGq recruitment, agonist, BRET1", "system": "HEK293T", "quantity": "Hill slope", "result": 0.94}
{"SMILES": "CC[C@H](C)[C@@H]1NC(=O)[C@H](Cc2ccccc2)NC(=O)[C@H](CCC(=O)O)NC(=O)[C@H](CCCNC(=N)N)NC(=O)CNC(=O)[C@@H](NC(=O)[C@H](CC(C)C)NC(=O)[C@H](CCCNC(=N)N)NC(=O)[C@@H](NC(=O)CNC(=O)[C@H](Cc2ccc(O)cc2)NC(=O)[C@@H]2CCCN2C(=O)[C@H](C)NC(=O)[C@H](C)NC(=O)[C@@H](N)CCCNC(=N)N)C(C)C)CSSC[C@@H]2NC(=O)[C@@H](NC(=O)[C@H](CO)NC(=O)[C@H](CO)NC(=O)[C@H](CO)NC(=O)[C@H](CC(C)C)NC(=O)CNC(=O)[C@H](C)NC(=O)[C@H](CC(C)C)NC(=O)[C@@H](NC(=O)[C@@H](N)CC(=O)O)C(C)C)CSSC[C@H](NC(=O)CNC(=O)[C@H](Cc3c[nH]c4ccccc34)NC(=O)[C@H](CCCCN)NC2=O)C(=O)N[C@@H](CO)C(=O)N[C@@H](CCCCN)C(=O)N[C@@H](CO)C(=O)N[C@@H](CCC(=O)O)C(=O)N[C@@H]([C@@H](C)CC)C(=O)N[C@@H](CO)C(=O)N[C@@H](CO)C(=O)N[C@@H](CC(C)C)C(=O)N[C@H](C(=O)O)CSSC[C@@H](C(=O)NCC(=O)NCC(=O)N[C@@H](CO)C(=O)N[C@@H](CCCNC(=N)N)C(=O)N[C@@H](Cc2c[nH]c3ccccc23)C(=O)O)NC(=O)[C@H]([C@@H](C)O)NC(=O)[C@H](Cc2ccccc2)NC(=O)[C@H]([C@@H](C)CC)NC(=O)[C@H](C(C)C)NC(=O)[C@H](C)NC(=O)[C@H](CCCNC(=N)N)NC1=O", "target": "RXFP3 (Homo sapiens, UniProt Q9NSD7, F146A)", "system": "HEK-293T", "scale": "baseline: wild type", "quantity": "Emax", "result": "60.8 ± 7.65%"}
{"SMILES": "CCN(CC)CCn1c2ccccc2c2nc(C)sc21", "target": "USP5", "assay": "enzyme activity, inhibitor", "conditions": "17 µM", "quantity": "inhibition", "result": "64%"}
{"SMILES": "CC(=O)N[C@@H](CCCNC(=N)N)C(=O)N[C@H](C(=O)N[C@@H](CCCCN)C(=O)N[C@@H](CO)C(=O)N[C@@H](CCCNC(=N)N)C(=O)N[C@H](C(=O)N[C@@H](Cc1c[nH]c2ccccc12)C(=O)N[C@@H](C)C(=O)N[C@@H](C)C(N)=O)[C@@H](C)OP(=O)(O)O)[C@@H](C)O", "target": "14-3-3 protein epsilon (Homo sapiens, UniProt P62258)", "assay": "binding, SPR", "quantity": "kon", "result": "1.01e+06 M⁻¹ s⁻¹"}
{"SMILES": "N#CN1CC[C@H](C(=O)Nc2nc3c(s2)CN(C(=O)Cn2cc(COCCOCCOCCOCCNC(=O)CCCC[C@@H]4SC[C@@H]5NC(=O)N[C@@H]54)nn2)CC3)C1", "target": "Tubulin alpha-1B chain (Homo sapiens, UniProt P68363)", "assay": "probe binding, affinity probe, neutravidin pull-down LC-MS/MS", "system": "HEK293T, cell lysate", "conditions": "5 µM, 1 h, single replicate, unit not given", "scale": "higher = more pulled down", "quantity": "iBAQ abundance", "result": "2.81e+08 and 4.12e+08 and 2.2e+08"}
{"SMILES": "CC(=O)N[C@@H](CO)C(=O)N[C@H](C(=O)N[C@@H](CCC(=O)O)C(=O)N[C@H](C(=O)N[C@@H](CC(=O)O)C(=O)COC(=O)c1c(C)cccc1C)C(C)C)C(C)(C)C", "target": "CASP9", "assay": "enzyme activity, inhibitor", "quantity": "kinact/KI", "result": "55100 M⁻¹ s⁻¹"}
{"SMILES": "CC(C)[C@@H]1NC(=O)[C@H](Cc2ccccc2)NC(=O)CSC[C@@H](C(N)=O)NC(=O)[C@H](CCC(=O)O)NC(=O)[C@H](CO)NC(=O)[C@H](Cc2c[nH]c3cccc(Cl)c23)NC(=O)[C@H](C2CCCCC2)NC(=O)[C@H](C(C)C)NC(=O)[C@H](Cc2ccc(O)cc2)NC(=O)[C@H](CC(=O)O)NC(=O)[C@H](Cc2c[nH]c3ccccc23)NC(=O)[C@H](Cc2ccc(N)nc2)NC(=O)[C@H](Cc2c[nH]c3ccc(Cl)cc23)NC(=O)[C@H](CCC(=O)O)NC1=O", "target": "Interleukin-1 receptor-like 2 (IL1RL2, Homo sapiens, UniProt Q9HB29)", "assay": "reporter gene (SEAP), inhibitor, HEK-Blue IL-36R reporter", "system": "HEK-Blue IL-36R cells", "conditions": "0.41 µM, 6 h, with: IL-36γ 100 ng/mL", "quantity": "remaining activity", "result": "106%"}
{"SMILES": "CC(C(=O)O)N1C(=O)C(=Cc2ccco2)SC1=S (centres unmarked)", "target": "USP5", "assay": "enzyme activity, inhibitor", "conditions": "17 µM", "quantity": "inhibition", "result": "15%"}
{"SMILES": "CC(=O)N[C@H](C(=O)N[C@@H](CCCC(=O)O)C(=O)N[C@@H](CCC1CCCCC1)C(=O)N[C@@H](CC(=O)O)C(=O)COC(=O)c1c(C)cccc1C)C(C)(C)C", "target": "CASP4", "assay": "enzyme activity, inhibitor", "quantity": "kinact/KI", "result": "30000 M⁻¹ s⁻¹"}
{"SMILES": "Nc1nc(SCc2ccc(Cl)cc2)nn1S(=O)(=O)c1ccc(-c2ccccn2)s1", "target": "Lysophospholipase-like protein 1 (Mus musculus, UniProt Q3UFF7)", "assay": "enzyme activity, activator, gel-based ABPP", "system": "purified protein", "conditions": "concentration not given, with: FP-rhodamine", "scale": "baseline: DMSO", "quantity": "probe labeling increase", "result": "1.4 fold"}
{"SMILES": "CN(C)c1ccc2c(c1)C(=O)N(CCc1ccc(S(N)(=O)=O)cc1)C2=O", "target": "CA2 (Homo sapiens, UniProt P00918)", "assay": "binding", "conditions": "2 µM, pH 7.2", "scale": "baseline: without protein", "quantity": "fluorescence turn-on", "result": "2.6 fold"}
{"SMILES": "CC[C@H](C)[C@H](NC(=O)[C@H](CCC(=O)O)NC(=O)[C@H](Cc1ccc(I)cc1)NC(C)=O)C(=O)N[C@@H](CC(=O)O)C(=O)COC(=O)c1c(C)cccc1C", "target": "CASP9", "assay": "enzyme activity, inhibitor", "quantity": "kinact/KI", "result": "58100 M⁻¹ s⁻¹"}
{"SMILES": "CCCCCCCCCCCCC/C=C/C=O", "target": "Large ribosomal subunit protein eL24 (Homo sapiens, UniProt P83731)", "assay": "competitive isoTOP-ABPP", "system": "proteome, soluble, MDA-MB-231", "conditions": "100 µM, 60 min, with: iodoacetamide probe", "scale": "baseline: DMSO over compound-treated, higher = stronger cysteine blockade", "quantity": "isoTOP-ABPP competition ratio", "result": 1.3}
{"SMILES": "CC(=O)N1CCC[C@H]1C(=O)N[C@H](C(=O)NCC(=O)N[C@@H](CC(=O)O)C(=O)COC(=O)c1c(C)cccc1C)C(C)(C)C", "target": "CASP4", "assay": "enzyme activity, inhibitor", "quantity": "kinact/KI", "result": "400 M⁻¹ s⁻¹"}
{"SMILES": "CC[C@H](C)[C@H](NC(=O)[C@H](CC(=O)O)NC(C)=O)C(=O)N[C@H](C(=O)N[C@H](C(=O)N[C@@H](CCCNC(=N)N)C(=O)N[C@@H](Cc1ccc(O)cc1)C(=O)N[C@@H](CC(N)=O)C(=O)NCC(=O)N[C@@H](CCCCN)C(=O)N[C@H](C(=O)N[C@@H](Cc1c[nH]c2ccccc12)C(=O)N[C@@H](Cc1c[nH]c2ccccc12)C(=O)N[C@@H](CCCNC(=N)N)C(=O)O)C(C)C)[C@@H](C)O)[C@@H](C)O", "target": "Insulin (INS, Bos taurus, UniProt P01317)", "assay": "circular dichroism", "conditions": "800 min, final stage after heating, with: INS 350 µM", "quantity": "β-strand content", "result": "16%"}
{"SMILES": "O=C(O)C(COP(=O)(O)O)OP(=O)(O)O (centres unmarked)", "target": "Phosphoglycerate mutase 1 (Homo sapiens, UniProt P18669)", "conditions": "0.0016 mM, unit not given", "scale": "baseline: activity at 1 mM set to 100", "quantity": "enzyme activity", "result": "73.7 and 63.1 and 80.2 and 61.1"}
{"SMILES": "O=C(NC1(O)C(=O)c2ccccc2C1=O)c1ccccn1", "target": "USP5", "assay": "enzyme activity, inhibitor", "conditions": "17 µM", "quantity": "inhibition", "result": "24%"}
{"SMILES": "CC(=O)N[C@@H](Cc1ccc(C)cc1)C(=O)N[C@@H](CCCC(=O)O)C(=O)N[C@H](C(=O)N[C@@H](CC(=O)O)C(=O)COC(=O)c1c(C)cccc1C)C(C)(C)C", "target": "CASP4", "assay": "enzyme activity, inhibitor", "quantity": "kinact/KI", "result": "1700 M⁻¹ s⁻¹"}
{"SMILES": "CC[C@H](C)[C@H](NC(=O)[C@H](Cc1ccccc1)NC(=O)[C@H](CCC(=O)O)NC(=O)[C@H](CCCCN)NC(=O)[C@H](C)NC(=O)[C@H](C)NC(=O)[C@H](CCC(N)=O)NC(=O)CNC(=O)[C@H](CCC(=O)O)NC(=O)[C@H](CC(C)C)NC(=O)[C@H](Cc1ccc(O)cc1)NC(=O)[C@H](CO)NC(=O)[C@H](CO)NC(=O)[C@@H](NC(=O)[C@H](CC(=O)O)NC(=O)[C@H](CO)NC(=O)[C@@H](NC(=O)CN(C[C@@H](NC(=O)CNC(=O)CN(C[C@H](C)NC(=O)[C@@H](N)Cc1c[nH]cn1)S(=O)(=O)c1ccc(C(=O)O)cc1)[C@H](C)O)S(=O)(=O)Cc1ccccc1)[C@@H](C)O)C(C)C)C(=O)N[C@@H](C)C(=O)N[C@@H](Cc1c[nH]c2ccccc12)C(=O)N[C@@H](CC(C)C)C(=O)N[C@H](C(=O)N[C@@H](CCCCN)C(=O)NCC(=O)N[C@@H](CCCNC(=N)N)C(=O)NCC(N)=O)C(C)C", "target": "GLP1R (Homo sapiens, UniProt P43220)", "assay": "CRE-luciferase reporter", "system": "HEK293-CRE-Luc", "conditions": "concentration not given", "quantity": "activity", "result": "inhibited"}
{"SMILES": "CC1CCCc2nc(N)nc(N)c21 (centres unmarked)", "target": "folA (Escherichia coli, UniProt P0ABQ4)", "assay": "conformational gating model", "quantity": "koff from excited state", "result": "1900 s⁻¹"}
{"SMILES": "CC(=O)N[C@@H](CC(C)C)C(=O)N[C@@H](CCC(=O)O)C(=O)N[C@@H](CCC1CCCCC1)C(=O)N[C@@H](CC(=O)O)C(=O)COC(=O)c1c(C)cccc1C", "target": "CASP9", "assay": "enzyme activity, inhibitor", "quantity": "kinact/KI", "result": "132000 M⁻¹ s⁻¹"}
{"SMILES": "O=C(c1ccc(Cl)s1)N1CCc2ccccc2C1", "target": "USP5", "assay": "enzyme activity, inhibitor", "conditions": "17 µM", "quantity": "inhibition", "result": "21%"}
{"SMILES": "CC(C=CC=C(C)C=CC1=C(C)CCCC1(C)C)=CC=O", "target": "Rhodopsin (RHO, Homo sapiens, UniProt P08100, E181K)", "assay": "ER retention, immunostaining co-localization, refers to: opsin with calnexin", "system": "COS-7 transfected E181K", "conditions": "5.00 µM", "quantity": "Pearson correlation coefficient", "result": 0.66}
{"SMILES": "Cn1c(=O)n(C2CCC(=O)NC2=O)c2ccc(C3CCN(CC(=O)Nc4cccc(CS(=O)(=O)N5CC[C@H](Nc6cccc(-c7sc(C(=O)O)c(OCC(=O)O)c7Cl)c6)CC5(C)C)c4)CC3)cc21 (some centres unmarked)", "target": "Tyrosine-protein phosphatase non-receptor type 2 (Ptpn2, Mus musculus, UniProt Q06180)", "assay": "degrader, Western blot", "system": "B16-F10", "conditions": "1 µM", "quantity": "remaining protein", "result": "0.6% and 0.7%"}
{"SMILES": "CC(=O)N[C@@H](CC(=O)O)C(=O)N[C@@H](CCCC(=O)O)C(=O)N1[C@H](C(=O)N[C@@H](CC(=O)O)C(=O)COC(=O)c2c(C)cccc2C)C[C@@H]2CCCC[C@@H]21", "target": "CASP9", "assay": "enzyme activity, inhibitor", "quantity": "kinact/KI", "result": "31300 M⁻¹ s⁻¹"}
{"SMILES": "C#CCOC(=O)[C@@]1(C)C=C(C(=O)OC(C)(C)C)C(=O)CC1", "target": "MAPK8 (Homo sapiens, UniProt P45983)", "assay": "enzyme activity, D-SENSOR", "conditions": "1.646 µM, single replicate", "quantity": "normalized kinase activity", "result": "0.832 and 1.02 and 0.912"}
{"note": "Repeated from above:"}
{"SMILES": "CC[C@H](C)[C@H](NC(=O)[C@H](CCC(=O)O)NC(=O)[C@H](Cc1ccc(I)cc1)NC(C)=O)C(=O)N[C@@H](CC(=O)O)C(=O)COC(=O)c1c(C)cccc1C", "target": "CASP9", "assay": "enzyme activity, inhibitor", "quantity": "kinact/KI", "result": "58100 M⁻¹ s⁻¹"}
{"SMILES": "CCCCCCCCCCCCC/C=C/C=O", "target": "Large ribosomal subunit protein eL24 (Homo sapiens, UniProt P83731)", "assay": "competitive isoTOP-ABPP", "system": "proteome, soluble, MDA-MB-231", "conditions": "100 µM, 60 min, with: iodoacetamide probe", "scale": "baseline: DMSO over compound-treated, higher = stronger cysteine blockade", "quantity": "isoTOP-ABPP competition ratio", "result": 1.3}
